{"data": "Results pooled from the literature", "note": "Compare with care: the assays were run in different laboratories. Numbers after ± are the reported error."}
{"Compound": "CC(C)Cc1ccc(C(C)C(=O)[Se]CC(=O)Nc2cccc(C(F)(F)F)c2)cc1 (stereo not shown)", "tested on": "NCI60 melanoma subpanel", "assay": "cell growth, inhibitor", "setting": "five-dose", "measurement": "GI50", "value": "2010 nM"}
{"Compound": "Cc1ncsc1-c1ccc(C(C)NC(=O)C2CC(O)CN2C(=O)C(NC(=O)CCCCCCCCCCN2CCCC(Nc3ncc(Cl)c(Nc4ccccc4S(=O)(=O)C(C)C)n3)C2)C(C)(C)C)cc1 (stereo not shown)", "tested on": "22Rv1", "assay": "RNA-seq, measured: MYNN mRNA", "setting": "concentration not given", "scale": "baseline: DMSO", "measurement": "log2 fold change", "value": -1.04}
{"Compound": "C=CS(=O)(=O)Oc1ccc(OC)c(-c2c[nH]c3ncc(-c4cncc(C(=O)N(C)C)c4)cc23)c1", "tested on": "Ba/F3 BCR-ABL wild type", "assay": "cell proliferation", "setting": "72 h", "measurement": "GI50", "value": "192 ± 4 nM"}
{"Compound": "O=C(C[Se]C(=O)c1cc2ccccc2o1)Nc1cccc(C(F)(F)F)c1", "tested on": "HCC 2998", "assay": "cell growth or viability, SRB", "measurement": "GI50", "value": "600 nM"}
{"Compound": "COc1cc(O)ccc1-c1c[nH]c2ncc(-c3cncc(C(=O)N(C)C)c3)cc12", "tested on": "Ba/F3 BCR-ABL wild type", "assay": "cell proliferation", "setting": "72 h", "measurement": "GI50", "value": "138 ± 9.9 nM"}
{"Compound": "Cc1c(Cl)c(=O)oc2cc(OCCCCCCSC#N)ccc12", "tested on": "WiDr, multidrug-resistant", "assay": "sulforhodamine B", "measurement": "GI50", "value": "9700 ± 2900 nM"}
{"Compound": "COC1CN([C@H]2CC[C@H]([C@@]3(C)Oc4c(Cl)cc(C(=O)NCc5c(SC)cc(C)[nH]c5=O)c(C)c4O3)CC2)C1", "assay": "RNA-seq, measured: SHB", "system": "human cancer patients, whole blood", "setting": "dose not given, 24 h, PRC2 target gene", "scale": "baseline: pretreatment sample", "measurement": "log2 fold change", "value": 3.48}
{"Compound": "CCN(C(=O)c1cc(F)ccc1Oc1nncnc1N1CCC2(C1)CN([C@H](CCCN(C)CCOC)C(C)C)C2)C(C)C", "tested on": "COLO-678", "assay": "cell growth or viability", "setting": "7 days", "measurement": "GI50", "value": "> 10000 nM"}
{"Compound": "N#CSCCCCCCOc1ccc2c(-c3ccccc3)cc(=O)oc2c1", "tested on": "WiDr, multidrug-resistant", "assay": "sulforhodamine B", "measurement": "GI50", "value": "14000 ± 4000 nM"}
{"Compound": "Nc1ncc(-c2cc(-c3cnn(CC(F)(F)F)c3)ncc2F)nc1C(=O)NC1CNCC(F)C1 (stereo not shown)", "tested on": "ANKK1", "assay": "KINOMEscan", "setting": "1 µM", "scale": "baseline: DMSO control", "measurement": "remaining binding", "value": "24%"}
{"Compound": "O=C(C[Se]C(=O)c1ccc2ccccc2c1)Nc1cccc(C(F)(F)F)c1", "tested on": "NCI60 melanoma subpanel", "assay": "cell growth, inhibitor", "setting": "five-dose", "measurement": "GI50", "value": "1700 nM"}
{"Compound": "COc1ccc(OC(C)=O)cc1-c1c[nH]c2ncc(-c3cncc(C(=O)N(C)C)c3)cc12", "tested on": "Ba/F3 BCR-ABL wild type", "assay": "cell proliferation", "setting": "72 h", "measurement": "GI50", "value": "17.9 ± 2.1 nM"}
{"Compound": "CNS(=O)(=O)Nc1nccc(Cc2c(C)c3ccc(Oc4ncccc4F)cc3oc2=O)c1F", "tested on": "AGS", "assay": "cell viability", "setting": "7 days", "measurement": "IC50", "value": "9.65 nM"}
